Measurements of several laboratories.
Protocols differ between the studies behind these lines. Several values in a cell are separate wells, animals, samples, runs or records. Numbers after ± are the reported error.
USP3 ZnF-UBD domain: Ubiquitin carboxyl-terminal hydrolase 3, ZnF-UBD domain (USP3, Homo sapiens, UniProt Q9Y6I4)
Chain of UniProt Q9Y6I4 (whole entry, looked up): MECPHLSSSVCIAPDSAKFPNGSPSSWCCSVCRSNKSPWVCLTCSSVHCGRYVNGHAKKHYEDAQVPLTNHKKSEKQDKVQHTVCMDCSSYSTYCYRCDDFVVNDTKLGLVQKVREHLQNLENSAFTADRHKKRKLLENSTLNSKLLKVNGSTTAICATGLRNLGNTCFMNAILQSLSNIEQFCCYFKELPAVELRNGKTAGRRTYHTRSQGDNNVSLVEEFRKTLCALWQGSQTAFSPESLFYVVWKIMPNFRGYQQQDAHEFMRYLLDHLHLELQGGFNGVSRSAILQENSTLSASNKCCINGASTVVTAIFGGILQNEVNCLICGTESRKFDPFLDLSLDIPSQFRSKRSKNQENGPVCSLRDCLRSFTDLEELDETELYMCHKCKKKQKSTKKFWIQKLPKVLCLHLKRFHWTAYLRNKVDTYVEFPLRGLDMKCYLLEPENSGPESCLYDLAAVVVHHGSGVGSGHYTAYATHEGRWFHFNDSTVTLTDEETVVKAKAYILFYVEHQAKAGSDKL
APP Aβ42 aggregates: Amyloid-beta precursor protein, Aβ42 aggregates (APP, Homo sapiens, UniProt P05067)
Chain of UniProt P05067 (whole entry, looked up): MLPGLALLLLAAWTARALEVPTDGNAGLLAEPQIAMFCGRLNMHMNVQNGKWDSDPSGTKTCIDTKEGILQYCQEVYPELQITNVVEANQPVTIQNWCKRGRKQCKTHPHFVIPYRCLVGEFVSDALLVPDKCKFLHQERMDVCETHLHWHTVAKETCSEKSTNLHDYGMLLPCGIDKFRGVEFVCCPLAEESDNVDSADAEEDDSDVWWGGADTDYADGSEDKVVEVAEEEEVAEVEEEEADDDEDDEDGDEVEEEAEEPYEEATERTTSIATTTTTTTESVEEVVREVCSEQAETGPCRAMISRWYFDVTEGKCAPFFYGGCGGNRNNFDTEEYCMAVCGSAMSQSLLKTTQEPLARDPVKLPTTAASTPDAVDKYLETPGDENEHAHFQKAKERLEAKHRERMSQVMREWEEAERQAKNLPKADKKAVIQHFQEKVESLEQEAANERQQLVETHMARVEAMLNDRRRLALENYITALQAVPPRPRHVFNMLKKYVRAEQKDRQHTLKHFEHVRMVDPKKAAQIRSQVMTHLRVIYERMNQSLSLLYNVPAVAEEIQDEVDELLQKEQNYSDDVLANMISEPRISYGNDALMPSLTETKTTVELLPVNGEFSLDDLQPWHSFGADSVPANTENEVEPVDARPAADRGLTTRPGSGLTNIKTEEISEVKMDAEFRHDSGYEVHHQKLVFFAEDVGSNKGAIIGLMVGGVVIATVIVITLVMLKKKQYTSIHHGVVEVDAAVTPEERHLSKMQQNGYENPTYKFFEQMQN
SMARCA4 bromodomain: SWI/SNF-related matrix-associated actin-dependent regulator of chromatin subfamily A member 4, bromodomain (SMARCA4, Homo sapiens, UniProt P51532)
Chain of UniProt Q16774 (whole entry, looked up): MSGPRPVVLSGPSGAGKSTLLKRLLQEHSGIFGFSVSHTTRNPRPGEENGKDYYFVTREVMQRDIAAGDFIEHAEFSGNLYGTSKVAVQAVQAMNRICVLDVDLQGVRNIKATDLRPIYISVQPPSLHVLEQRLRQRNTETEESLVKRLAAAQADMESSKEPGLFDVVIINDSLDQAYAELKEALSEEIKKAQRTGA
Chain of UniProt P35555 (whole entry, looked up): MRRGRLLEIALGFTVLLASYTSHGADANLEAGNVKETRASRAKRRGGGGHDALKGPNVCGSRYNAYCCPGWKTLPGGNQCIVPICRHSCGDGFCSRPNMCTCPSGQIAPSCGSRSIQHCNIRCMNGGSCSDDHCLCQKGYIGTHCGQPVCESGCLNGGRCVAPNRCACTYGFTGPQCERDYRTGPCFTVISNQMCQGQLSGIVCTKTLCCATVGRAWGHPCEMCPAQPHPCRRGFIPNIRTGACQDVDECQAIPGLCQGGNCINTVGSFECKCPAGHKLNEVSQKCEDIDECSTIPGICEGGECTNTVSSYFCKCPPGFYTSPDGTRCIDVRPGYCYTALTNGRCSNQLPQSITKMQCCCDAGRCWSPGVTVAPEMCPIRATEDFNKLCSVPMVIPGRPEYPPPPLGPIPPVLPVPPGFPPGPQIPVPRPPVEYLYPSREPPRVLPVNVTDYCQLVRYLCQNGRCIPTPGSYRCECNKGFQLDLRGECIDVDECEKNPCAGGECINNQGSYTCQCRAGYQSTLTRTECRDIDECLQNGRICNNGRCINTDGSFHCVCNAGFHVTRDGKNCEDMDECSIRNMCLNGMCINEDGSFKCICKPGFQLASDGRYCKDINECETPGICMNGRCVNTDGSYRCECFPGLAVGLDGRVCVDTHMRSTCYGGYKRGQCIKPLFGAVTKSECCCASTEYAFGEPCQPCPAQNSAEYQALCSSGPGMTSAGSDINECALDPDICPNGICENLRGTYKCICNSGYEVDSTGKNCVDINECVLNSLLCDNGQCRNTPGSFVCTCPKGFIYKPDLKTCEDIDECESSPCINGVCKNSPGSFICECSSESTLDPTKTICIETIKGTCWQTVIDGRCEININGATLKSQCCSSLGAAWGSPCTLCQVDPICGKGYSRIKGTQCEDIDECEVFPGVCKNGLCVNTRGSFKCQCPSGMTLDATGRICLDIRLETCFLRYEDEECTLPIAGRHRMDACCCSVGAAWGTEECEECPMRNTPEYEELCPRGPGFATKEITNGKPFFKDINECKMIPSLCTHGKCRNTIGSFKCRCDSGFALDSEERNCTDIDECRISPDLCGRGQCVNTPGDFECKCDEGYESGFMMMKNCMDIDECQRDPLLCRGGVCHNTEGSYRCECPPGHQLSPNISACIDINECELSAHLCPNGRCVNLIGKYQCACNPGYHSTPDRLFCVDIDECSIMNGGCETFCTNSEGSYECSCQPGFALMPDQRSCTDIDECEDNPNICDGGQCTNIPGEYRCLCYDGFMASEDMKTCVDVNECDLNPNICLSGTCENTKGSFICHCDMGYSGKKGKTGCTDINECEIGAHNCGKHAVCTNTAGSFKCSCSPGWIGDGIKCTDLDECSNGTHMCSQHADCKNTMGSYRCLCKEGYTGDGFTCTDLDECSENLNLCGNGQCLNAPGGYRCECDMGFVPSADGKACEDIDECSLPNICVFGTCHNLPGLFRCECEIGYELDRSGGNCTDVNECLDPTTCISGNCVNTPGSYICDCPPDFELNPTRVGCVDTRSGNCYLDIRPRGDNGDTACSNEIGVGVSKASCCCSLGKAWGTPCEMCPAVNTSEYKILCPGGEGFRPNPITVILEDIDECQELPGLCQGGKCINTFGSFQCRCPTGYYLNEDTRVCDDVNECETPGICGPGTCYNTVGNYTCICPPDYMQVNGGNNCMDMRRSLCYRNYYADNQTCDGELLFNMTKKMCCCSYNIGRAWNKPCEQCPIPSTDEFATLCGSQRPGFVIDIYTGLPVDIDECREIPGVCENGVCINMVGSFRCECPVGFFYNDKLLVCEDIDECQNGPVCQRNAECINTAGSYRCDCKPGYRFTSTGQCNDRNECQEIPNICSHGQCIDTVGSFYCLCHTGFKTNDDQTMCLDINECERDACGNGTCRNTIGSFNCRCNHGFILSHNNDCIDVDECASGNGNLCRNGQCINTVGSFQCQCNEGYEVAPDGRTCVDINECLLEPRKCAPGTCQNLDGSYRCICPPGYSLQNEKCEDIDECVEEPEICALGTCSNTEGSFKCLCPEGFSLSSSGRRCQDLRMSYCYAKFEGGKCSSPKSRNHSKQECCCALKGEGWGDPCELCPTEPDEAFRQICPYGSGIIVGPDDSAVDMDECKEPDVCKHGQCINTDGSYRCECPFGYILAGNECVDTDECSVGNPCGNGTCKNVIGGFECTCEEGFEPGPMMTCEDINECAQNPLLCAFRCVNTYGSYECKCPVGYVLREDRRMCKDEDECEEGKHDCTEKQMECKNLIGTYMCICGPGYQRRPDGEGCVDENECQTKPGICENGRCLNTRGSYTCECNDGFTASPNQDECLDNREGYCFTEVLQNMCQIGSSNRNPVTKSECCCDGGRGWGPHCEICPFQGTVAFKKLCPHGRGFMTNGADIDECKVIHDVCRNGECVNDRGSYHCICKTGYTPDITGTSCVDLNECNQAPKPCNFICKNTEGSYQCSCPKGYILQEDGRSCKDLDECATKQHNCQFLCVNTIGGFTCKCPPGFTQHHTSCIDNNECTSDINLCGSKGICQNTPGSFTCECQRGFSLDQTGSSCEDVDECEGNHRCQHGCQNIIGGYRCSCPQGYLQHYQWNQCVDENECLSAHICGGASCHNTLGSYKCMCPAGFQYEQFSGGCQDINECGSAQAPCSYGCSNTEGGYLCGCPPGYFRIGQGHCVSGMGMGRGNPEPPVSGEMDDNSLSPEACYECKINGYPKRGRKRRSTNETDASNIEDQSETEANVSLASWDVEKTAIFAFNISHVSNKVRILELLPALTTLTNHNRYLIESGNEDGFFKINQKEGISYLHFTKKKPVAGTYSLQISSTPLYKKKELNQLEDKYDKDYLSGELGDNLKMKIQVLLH
Chain of UniProt P23204 (whole entry, unmodified, looked up): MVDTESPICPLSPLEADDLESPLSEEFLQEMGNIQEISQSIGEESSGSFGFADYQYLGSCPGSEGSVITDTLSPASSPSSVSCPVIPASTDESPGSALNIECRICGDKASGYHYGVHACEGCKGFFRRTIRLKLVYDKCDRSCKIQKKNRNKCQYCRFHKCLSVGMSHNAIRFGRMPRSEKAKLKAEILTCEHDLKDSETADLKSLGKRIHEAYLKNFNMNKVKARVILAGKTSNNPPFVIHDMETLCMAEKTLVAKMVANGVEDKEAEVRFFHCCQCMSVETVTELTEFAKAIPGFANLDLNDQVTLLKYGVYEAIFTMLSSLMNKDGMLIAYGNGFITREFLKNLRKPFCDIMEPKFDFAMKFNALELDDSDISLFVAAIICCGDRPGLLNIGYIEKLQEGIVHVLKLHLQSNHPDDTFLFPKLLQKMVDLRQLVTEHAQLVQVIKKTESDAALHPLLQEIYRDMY
Chain of UniProt P03146 (whole entry, looked up): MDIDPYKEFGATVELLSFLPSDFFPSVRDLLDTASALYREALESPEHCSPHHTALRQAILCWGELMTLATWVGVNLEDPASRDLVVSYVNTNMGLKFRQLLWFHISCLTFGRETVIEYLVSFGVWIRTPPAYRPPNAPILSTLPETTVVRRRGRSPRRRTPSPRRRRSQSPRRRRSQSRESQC

Structure (SMILES)	target	assay	system	setting	Kd
CC[C@H](C)[C@H](NC(=O)[C@H](Cc1c[nH]c2ccccc12)NC(=O)[C@H](CO)NC(=O)[C@H](Cc1ccccc1)NC(=O)[C@H](Cc1ccccc1)NC(=O)[C@H](CC(C)C)NC(=O)[C@H](C)NC(=O)CNC(=O)[C@@H]1CCCN1C(=O)[C@H](CCCNC(=N)N)NC(=O)[C@H](CC(C)C)NC(=O)[C@H](CO)NC(=O)[C@@H](N)CC(N)=O)C(=O)N[C@@H](CC(N)=O)C(=O)N[C@@H](CCCCN)C(=O)N[C@H](C(=O)N[C@@H](CO)C(=O)N1CCC[C@H]1C(=O)N[C@H](C(=O)N[C@H](C(=O)O)[C@@H](C)O)C(C)C)[C@@H](C)O	DNA repair protein REV1, C-terminal domain (Homo sapiens, UniProt Q9UBZ9)	inhibitor, fluorescence competition	–	with: pol κ RIR	32 µM
O=C(O)CCn1nnc(-c2ccccc2)n1	USP3 ZnF-UBD domain	–	–	–	146 µM
O=c1cc(-c2ccc(O)cc2)oc2cc(O)c(O)c(O)c12	Polyphosphate kinase (ppk, Acinetobacter baumannii, UniProt A3M3C8)	binding, surface plasmon resonance	–	–	54.4 µM
CC(=O)N[C@H](C(=O)N[C@@H](CC(N)=O)C(=O)N[C@@H](CO)C(=O)N[C@H]1CSSC[C@@H](C(=O)NCC(=O)N[C@@H](CC(=O)O)C(=O)N[C@@H](CC(=O)O)C(=O)N[C@@H](CCCCNC(=O)CCCC(=O)NCCOCCOCCOCC(=O)NCCCC[C@H](NC(=O)COCCOCCOCCNC(=O)CCCC(=O)NCCCC[C@H](NC(=O)[C@H](CC(=O)O)NC(=O)[C@H](CC(=O)O)NC(=O)CNC(=O)[C@@H]2CSSC[C@H](NC(=O)[C@H](CO)NC(=O)[C@H](CC(N)=O)NC(=O)[C@@H](NC(C)=O)C(C)C)C(=O)N[C@@H](CC(C)C)C(=O)N[C@@H](CC(C)C)C(=O)N[C@@H](CC(C)C)C(=O)N3CCC[C@H]3C(=O)N[C@@H](CC(N)=O)C(=O)N[C@@H](CC(C)C)C(=O)N[C@@H](CC(C)C)C(=O)NCC(=O)N2)C(=O)N[C@@H](CCCCNC(=O)CCCC[C@@H]2SC[C@@H]3NC(=O)N[C@@H]32)C(N)=O)C(=O)NCc2cn(-c3cc(C(=O)NCCCCCC(=O)NCCCCCC(=O)NCCCCCC(=O)NCCCCCC(=O)NCCCCCC(=O)NCCCCCC(=O)NCc4cn(CCCC[C@H](NC(=O)N[C@@H](CCC(=O)O)C(=O)O)C(=O)O)nn4)cc(C(=O)NCCCCCC(=O)NCCCCCC(=O)NCCCCCC(=O)NCCCCCC(=O)NCCCCCC(=O)NCCCCCC(=O)NCc4cn(CCCC[C@H](NC(=O)N[C@@H](CCC(=O)O)C(=O)O)C(=O)O)nn4)c3)nn2)C(=O)N[C@@H](CCCCNC(=O)CCCC[C@@H]2SC[C@@H]3NC(=O)N[C@@H]32)C(N)=O)NC(=O)CNC(=O)[C@H](CC(C)C)NC(=O)[C@H](CC(C)C)NC(=O)[C@H](CC(N)=O)NC(=O)[C@@H]2CCCN2C(=O)[C@H](CC(C)C)NC(=O)[C@H](CC(C)C)NC(=O)[C@H](CC(C)C)NC1=O)C(C)C	Glutamate carboxypeptidase 2 (FOLH1, Homo sapiens, UniProt Q04609)	bead phagocytosis, ternary complex model fit	–	with: PSMA 80 pM, FcγRI 800 pM	0.05 µM
CN(C)c1ccc(C=Cc2nc3ccc(OCCF)cc3s2)cc1 (mixture of isomers)	APP Aβ42 aggregates	binding, fluorescence saturation binding	preformed amyloid-beta aggregates in PBS	–	0.059 ± 0.012 µM
Nc1ncnc2c1ncn2[C@@H]1O[C@H](CO[P@](=O)(O)O[P@](=O)(O)O[P@@](=O)(O)S)[C@@H](O)[C@H]1O	GUK1, part: GMP-bound (Homo sapiens, UniProt Q16774)	binding, ITC	–	with: ADP and GMP 0.5 mM	8.2 µM and 13.7 µM and 10.8 µM
COc1ccc(C=C2SC(=O)N(C(C)C(=O)O)C2=O)cc1 (centres unmarked)	USP3 ZnF-UBD domain	–	–	–	441 µM
CC[C@H](C)[C@H](NC(=O)[C@H](CO)NC(=O)[C@H](CCCNC(=N)N)NC(=O)[C@H](CC(=O)O)NC(=O)[C@H](CCSC)NC(=O)[C@H](CO)NC(=O)[C@H](CC(=O)O)NC(=O)CNC(=O)[C@@H](NC(=O)[C@H](CCC(N)=O)NC(=O)[C@H](C)NC(=O)[C@H](CC(C)C)NC(=O)[C@H](Cc1c[nH]cn1)NC(=O)[C@H](CCCNC(=N)N)NC(=O)[C@H](C)NC(=O)[C@@H](NC(=O)[C@H](CC(N)=O)NC(=O)[C@H](CCCNC(=N)N)NC(=O)[C@@H](NC(=O)[C@@H](NC(=O)[C@H](CC(=O)O)NC(=O)[C@H](CCC(=O)O)NC(C)=O)[C@@H](C)CC)[C@@H](C)CC)[C@@H](C)CC)C(C)C)C(N)=O	Bcl-2 homologous antagonist/killer, part: residues 15–186 (BAK1, Homo sapiens, UniProt Q16611)	sedimentation equilibrium AUC	–	–	10.1 µM
OC1OC[C@H](O)[C@H](O)[C@H]1O (mixture of isomers)	uncharacterized protein (Pelagibacter ubique, UniProt Q4FMK2)	isothermal titration calorimetry	Candidatus Pelagibacter ubique	–	1.24 µM and 1.37 µM
COc1cc2oc(=O)cc(C)c2cc1CCC(=O)O	USP3 ZnF-UBD domain	–	–	–	354 µM
[H]/N=C(/N)N[C@H]1[C@H](O)[C@@H](O)[C@H](O[C@@H]2O[C@@H](C)[C@](O)(C=O)[C@H]2O[C@@H]2O[C@@H](CO)[C@H](O)[C@@H](O)[C@@H]2NC)[C@@H](N/C(N)=N\[H])[C@@H]1O	de novo protein S23	binding, surface plasmon resonance	–	–	no binding
O=C(O)CN1Cc2ccccc2C1=O	USP3 ZnF-UBD domain	–	–	–	758 µM
NC1CCN(S(=O)(=O)c2cc(C(=O)Nc3cc(F)c(F)c(F)c3)ccc2F)CC1	Capsid protein (C, Hepatitis B virus genotype D subtype ayw, UniProt P03146)	surface plasmon resonance	–	25 °C	708 µM
Cc1ncsc1-c1ccc(CNC(=O)[C@@H]2C[C@H](O)CN2C(=O)[C@@H](NC(=O)C2(F)CC2)C(C)(C)C)c(OCCOc2ccc(CN3CCN(c4cc(-c5ccccc5O)nnc4N)CC3)cc2)c1	SMARCA4 bromodomain	binding, SPR	–	6 °C	1.6 µM
O=C(O)CCC(=O)c1ccc2c(c1)CCC(=O)N2	USP3 ZnF-UBD domain	–	–	–	140 µM
CCCN1CCN(c2ccc(-c3cncc(Cl)c3N3CCC4(CCNC4=O)CC3)cc2)CC1	MED14 human	SILAC competition	LS174T-L5 lysate	–	0.007 µM

Structure (SMILES)	target	assay	system	setting	Kd
CC(C)=CCC/C(C)=C/C=C/C(C)=C/C=C/C(C)=C/C=C/C=C(C)/C=C/C=C(C)/C=C/C=C(\C)CCC=C(C)C	Beta-lactoglobulin (LGB, Bos taurus, UniProt P02754)	binding, fluorescence quenching	PBS	30 min, 303 K	2.33 µM
COc1cc(Cl)c(C(=O)N[C@@H](CN[C@H]2CC[C@@H](N)CC2)Cc2ccc(C#N)cc2)cc1-c1ccc(CN[C@H](C)c2ccc(C)cc2)o1	ATPase family AAA domain-containing protein 2, bromodomain (ATAD2, Homo sapiens, UniProt Q6PL18)	isothermal titration calorimetry	–	37 °C, His-tagged protein	0.753 µM
CN(C)c1ccc(/C=C/c2nc3ccc(OCCOCCOCCCF)cc3s2)cc1	APP Aβ42 aggregates	binding, fluorescence saturation binding	preformed amyloid-beta aggregates in PBS	–	0.325 ± 0.039 µM
O=C(O)CCN1C(=O)c2ccccc2S1(=O)=O	USP3 ZnF-UBD domain	–	–	–	> 1000 µM
C#Cc1c(F)ccc2cc(O)cc(-c3ncc4c(N5CC6CCC(C5)N6)nc(OC[C@@]56CCCN5C[C@H](F)C6)nc4c3F)c12	Ras-related protein Rap-1A, GDP-bound (Homo sapiens, UniProt P62834)	binding, surface plasmon resonance	–	–	> 30 µM
O=c1c(O)c(-c2cc(O)c(O)c(O)c2)oc2cc(O)cc(O)c12	Histidinol-phosphate aminotransferase (hisC, Acinetobacter baumannii, UniProt A3M2I8)	surface plasmon resonance	–	–	2.6 µM
O=C(O)Cn1ccc2ccccc2c1=O	USP3 ZnF-UBD domain	–	–	–	249 µM
Cn1cncc1C1=CN(c2ncnc3[nH]cnc23)CCS1(=O)=O	cAMP-dependent protein kinase catalytic subunit alpha (PRKACA, Homo sapiens, UniProt P17612)	binding	–	–	431 ± 274 µM
CCCCCCCCCCCC1=C(O)C(=O)C=C(O)C1=O	de novo protein S23	binding, NMR	–	–	1000 ± 520 µM
Cc1cc(C)n2c1C=C1C=CC(CCCCCCCCCCCCCCCC(=O)O)=[N+]1[B-]2(F)F	Peroxisome proliferator-activated receptor alpha (Ppara, Mus musculus, UniProt P23204, F272I)	binding, BODIPY fluorescent ligand titration	–	–	0.018 ± 0.003 µM
Cc1cc2nc3c(=O)[nH]c(=O)nc-3n(C[C@H](O)[C@H](O)[C@H](O)COP(=O)(O)OP(=O)(O)OC[C@H]3O[C@@H](n4cnc5c(N)ncnc54)[C@H](O)[C@@H]3O)c2cc1C	Fibrillin-1 (FBN1, Homo sapiens, UniProt P35555)	binding, MS pulldown competition	SW-620 cell lysate	–	18.1 µM
CCCCCCCC(=O)OC[C@H](COP(=O)(O)O[C@@H]1[C@H](O)[C@H](O)[C@@H](OP(=O)(O)O)[C@H](OP(=O)(O)O)[C@H]1O)OC(=O)CCCCCCC	Kv7.2/Kv7.3(EEE) mutant channel	channel opening, activator, model fit of open probability	–	model 4, K2, K2 and K3 constrained	96 µM
O=C(O)Cc1cccc2cccnc12	USP3 ZnF-UBD domain	–	–	–	> 1000 µM
Nc1nc2c(ncn2[C@@H]2O[C@H](COP(=O)(O)OP(=O)(O)O)[C@@H](OP(=O)(O)OP(=O)(O)O)[C@H]2O)c(=O)[nH]1	speC (Escherichia coli, UniProt P21169)	isothermal titration calorimetry	–	–	2.3 µM
NC[C@@H]1O[C@H](O[C@H]2[C@@H](O)[C@H](O[C@@H]3[C@@H](O)[C@H](N)C[C@H](N)[C@H]3O[C@H]3O[C@H](CO)[C@@H](O)[C@H](O)[C@H]3N)O[C@@H]2CO)[C@H](N)[C@@H](O)[C@@H]1O	de novo protein S23	NMR	–	–	15 to 20 µM
Cc1ncsc1-c1ccc(CNC(=O)[C@@H]2C[C@H](O)CN2C(=O)[C@@H](NC(=O)C2(F)CC2)C(C)(C)C)c(OCCc2ccc(CN3CCN(c4cc(-c5ccccc5O)nnc4N)CC3)cc2)c1	SMARCA4 bromodomain	binding, SPR	–	6 °C	1.2 µM

For quick reference, copied from above:
Structure (SMILES)	target	assay	system	setting	Kd
O=C(O)CCN1C(=O)c2ccccc2S1(=O)=O	USP3 ZnF-UBD domain	–	–	–	> 1000 µM
O=C(O)CCC(=O)c1ccc2c(c1)CCC(=O)N2	USP3 ZnF-UBD domain	–	–	–	140 µM
CCCCCCCC(=O)OC[C@H](COP(=O)(O)O[C@@H]1[C@H](O)[C@H](O)[C@@H](OP(=O)(O)O)[C@H](OP(=O)(O)O)[C@H]1O)OC(=O)CCCCCCC	Kv7.2/Kv7.3(EEE) mutant channel	channel opening, activator, model fit of open probability	–	model 4, K2, K2 and K3 constrained	96 µM
Cc1ncsc1-c1ccc(CNC(=O)[C@@H]2C[C@H](O)CN2C(=O)[C@@H](NC(=O)C2(F)CC2)C(C)(C)C)c(OCCc2ccc(CN3CCN(c4cc(-c5ccccc5O)nnc4N)CC3)cc2)c1	SMARCA4 bromodomain	binding, SPR	–	6 °C	1.2 µM
Cn1cncc1C1=CN(c2ncnc3[nH]cnc23)CCS1(=O)=O	cAMP-dependent protein kinase catalytic subunit alpha (PRKACA, Homo sapiens, UniProt P17612)	binding	–	–	431 ± 274 µM
